Earlier results, collected from citations in different studies.
Numbers after ± are the reported error.

| SMILES | tested on | test | test system | conditions | endpoint | value |
| --- | --- | --- | --- | --- | --- | --- |
| CC(=O)Sc1ccccc1C(=O)NCCC(N)=O | HIV-1 | viral replication | human PBMC, 92HT599 |  | EC50 | 5740 ± 1260 nM |
| O=C(C=C(O)C(F)(F)C(F)(F)C(F)(F)F)c1cccnc1 | Plasmodium falciparum | parasite growth | 3D7 |  | EC50 | 1170 ± 30 nM |
| c1ccc(Nc2ncnc3ccc(-c4cccc(N5CCOCC5)c4)cc23)cc1 | Trypanosoma brucei | parasite growth |  |  | EC50 | 11000 nM |
| O=C(C=C(O)C(F)(F)c1ccccc1)c1cccnc1 | Plasmodium falciparum | parasite growth | 3D7 |  | EC50 | 36600 ± 11100 nM |
| O=C(c1cccc(-c2ccc3ncnc(Nc4ccc(OCc5cccc(F)c5)c(Cl)c4)c3c2)c1)N1CCOCC1 | Trypanosoma brucei | parasite growth |  |  | EC50 | 550 nM |
| O=C(C=C(O)C(F)(F)C(F)(F)F)c1ccco1 | Plasmodium falciparum | parasite growth | 3D7 |  | EC50 | 1980 ± 40 nM |
| Fc1cccc(COc2ccc(Nc3ncnc4ccc(-c5ccc(CN6CCCCC6)cc5)cc34)cc2Cl)c1 | Trypanosoma brucei | parasite growth |  |  | EC50 | 1500 nM |
| Cc1ccc(N(C)C(=O)[C@H](Cc2ccccc2)NC(=O)Cc2c[nH]c3ccc(O)cc23)cc1 | HIV-1 | viral replication | TZM-GFP, wild type |  | EC50 | 32 ± 8 nM |
| COC(F)(F)C(F)(F)C(O)=CC(=O)c1cccnc1 | Plasmodium falciparum | parasite growth | 3D7 |  | EC50 | 3390 ± 10 nM |
| O=C(c1ccc(-c2ccc3ncnc(Nc4ccc(OCc5cccc(F)c5)c(Cl)c4)c3c2)cc1)N1CCOCC1 | Trypanosoma brucei | parasite growth |  |  | EC50 | 1200 nM |
| CCn1c(C)c(CC(=O)N[C@@H](Cc2ccccc2)C(=O)N(C)c2ccccc2)c2ccccc21 | HIV-1 | viral replication | TZM-GFP, wild type |  | EC50 | 250 ± 100 nM |
| CCOC(=O)c1[nH]c(C)c(Cc2ccc(C(F)(F)F)nc2)c1C | Plasmodium falciparum | parasite growth | 3D7 |  | EC50 | 9.2 nM |
| CN1CCN(S(=O)(=O)c2ccc(-c3ccc4ncnc(Nc5ccc(Cl)cc5)c4c3)cc2)CC1 | Trypanosoma brucei | parasite growth |  |  | EC50 | 2400 nM |
| O=C(C=C(O)C(F)(F)C(F)(F)F)c1ccc(NCc2ccccc2)nc1 | Plasmodium falciparum | parasite growth | 3D7 |  | EC50 | 78 ± 4 nM |
| CC(C)(C#Cc1ccc(-c2ccc(Cl)c3c(NS(C)(=O)=O)nn(CC(F)(F)F)c23)c([C@H](Cc2ccccc2)NC(=O)Cn2nc(C(F)(F)F)c3c2C(F)(F)[C@@H]2C[C@H]32)n1)S(C)(=O)=O | HIV-1 | viral replication | wild type |  | EC50 | 0.39 nM |
| Fc1cccc(COc2ccc(Nc3ncnc4ccc(-c5ccc(N6CCOCC6)cc5)cc34)cc2Cl)c1 | Trypanosoma brucei | parasite growth |  |  | EC50 | 1900 nM |
| CN(C(=O)[C@H](Cc1ccccc1)NC(=O)Cc1c[nH]c2ccc(O)cc12)c1ccccc1 | HIV-1 | viral replication | TZM-GFP, wild type |  | EC50 | 53 ± 15 nM |
| COc1ccc(Nc2nc(Nc3ccc(OCC[18F])cc3)ncc2Br)cc1 |  |  | S180 tumour-bearing mice, blood | intravenous, 60 min | tissue uptake | 1.93 ± 0.1 %ID/g |
| Cn1cnc([N+](=O)[O-])c1Sc1ccccc1C(=O)NCCC(N)=O | HIV-1 | viral replication | CEM-SS, RF |  | EC50 | 3640 ± 3280 nM |
| CC(C)(C)OC(=O)N1CCN(c2ccc(-c3ccc4ncnc(Nc5ccc(OCc6cccc(F)c6)c(Cl)c5)c4c3)cc2)CC1 | Trypanosoma brucei | parasite growth |  |  | EC50 | 6000 nM |
| Cc1c(CC(=O)N[C@@H](Cc2ccccc2)C(=O)N(C)c2ccccc2)c2ccccc2n1C(C)C | HIV-1 | viral replication | TZM-GFP, wild type |  | EC50 | 300 ± 30 nM |
| CCCC(=O)OCSc1ccccc1C(=O)NCCC(N)=O | HIV-1 | viral replication | human PBMC, 92HT599 |  | EC50 | 2000 ± 1040 nM |
| O=C(C=C(O)C(F)(F)C(F)(F)F)c1ccoc1 | Plasmodium falciparum | parasite growth | 3D7 |  | EC50 | 860 ± 80 nM |
| CCn1c(C)c(CC(=O)N[C@@H](Cc2ccccc2)C(=O)N(C)c2cccc(Cl)c2)c2ccccc21 | HIV-1 | viral replication | TZM-GFP, wild type |  | EC50 | 490 ± 200 nM |
